Experimental data gathered from unrelated publications.
Numbered parts are unrelated; each lists some results of a single study.
Sequence of UniProt Q16659 (whole entry, looked up): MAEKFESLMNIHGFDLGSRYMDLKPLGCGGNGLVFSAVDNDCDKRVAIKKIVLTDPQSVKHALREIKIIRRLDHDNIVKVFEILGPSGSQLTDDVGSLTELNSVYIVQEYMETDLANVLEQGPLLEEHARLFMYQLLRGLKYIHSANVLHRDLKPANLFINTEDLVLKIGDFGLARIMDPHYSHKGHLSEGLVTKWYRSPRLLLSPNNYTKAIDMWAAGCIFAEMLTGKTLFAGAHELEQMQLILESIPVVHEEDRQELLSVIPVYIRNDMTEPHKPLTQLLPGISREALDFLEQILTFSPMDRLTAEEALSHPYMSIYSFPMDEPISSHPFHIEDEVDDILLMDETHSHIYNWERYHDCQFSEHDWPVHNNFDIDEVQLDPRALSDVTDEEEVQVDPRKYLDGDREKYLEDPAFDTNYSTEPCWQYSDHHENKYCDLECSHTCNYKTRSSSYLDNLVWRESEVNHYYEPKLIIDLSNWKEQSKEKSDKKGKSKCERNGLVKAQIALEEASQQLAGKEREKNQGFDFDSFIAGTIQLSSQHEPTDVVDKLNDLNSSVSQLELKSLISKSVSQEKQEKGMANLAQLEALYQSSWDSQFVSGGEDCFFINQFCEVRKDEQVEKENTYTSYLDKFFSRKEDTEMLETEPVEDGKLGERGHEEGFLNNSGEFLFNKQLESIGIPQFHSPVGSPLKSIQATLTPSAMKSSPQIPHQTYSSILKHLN
Sequence of UniProt Q9UBF8 (whole entry, looked up): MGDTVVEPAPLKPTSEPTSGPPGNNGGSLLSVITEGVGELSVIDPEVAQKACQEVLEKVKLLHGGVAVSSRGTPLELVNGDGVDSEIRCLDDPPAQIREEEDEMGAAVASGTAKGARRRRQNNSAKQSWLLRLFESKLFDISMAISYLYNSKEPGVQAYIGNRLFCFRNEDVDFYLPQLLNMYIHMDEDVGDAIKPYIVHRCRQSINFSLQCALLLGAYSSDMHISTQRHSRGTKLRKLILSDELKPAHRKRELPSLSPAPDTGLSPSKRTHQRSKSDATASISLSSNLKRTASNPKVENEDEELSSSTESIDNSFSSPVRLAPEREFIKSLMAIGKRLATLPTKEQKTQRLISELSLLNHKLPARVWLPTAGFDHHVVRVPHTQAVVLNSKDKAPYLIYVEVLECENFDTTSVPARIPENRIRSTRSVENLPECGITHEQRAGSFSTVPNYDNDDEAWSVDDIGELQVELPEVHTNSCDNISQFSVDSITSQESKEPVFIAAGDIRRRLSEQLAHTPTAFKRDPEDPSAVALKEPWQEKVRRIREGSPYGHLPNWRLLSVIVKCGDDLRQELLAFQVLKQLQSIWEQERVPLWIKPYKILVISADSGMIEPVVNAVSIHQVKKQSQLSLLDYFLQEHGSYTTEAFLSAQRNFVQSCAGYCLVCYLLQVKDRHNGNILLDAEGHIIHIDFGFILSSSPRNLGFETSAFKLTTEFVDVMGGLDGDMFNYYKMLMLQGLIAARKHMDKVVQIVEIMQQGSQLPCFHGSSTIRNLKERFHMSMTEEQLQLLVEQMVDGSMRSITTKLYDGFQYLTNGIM
Sequence of UniProt P50750 (whole entry, looked up): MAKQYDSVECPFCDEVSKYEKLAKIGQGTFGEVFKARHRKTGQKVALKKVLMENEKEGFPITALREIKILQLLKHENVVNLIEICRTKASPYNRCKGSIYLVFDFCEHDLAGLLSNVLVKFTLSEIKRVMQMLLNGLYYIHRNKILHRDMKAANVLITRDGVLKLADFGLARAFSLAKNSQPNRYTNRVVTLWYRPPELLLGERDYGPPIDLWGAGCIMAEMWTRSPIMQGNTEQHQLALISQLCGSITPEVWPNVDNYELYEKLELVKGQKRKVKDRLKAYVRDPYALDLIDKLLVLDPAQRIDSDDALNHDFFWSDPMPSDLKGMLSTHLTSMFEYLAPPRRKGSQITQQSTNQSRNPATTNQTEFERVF
Sequence of UniProt Q8TDR2 (whole entry, looked up): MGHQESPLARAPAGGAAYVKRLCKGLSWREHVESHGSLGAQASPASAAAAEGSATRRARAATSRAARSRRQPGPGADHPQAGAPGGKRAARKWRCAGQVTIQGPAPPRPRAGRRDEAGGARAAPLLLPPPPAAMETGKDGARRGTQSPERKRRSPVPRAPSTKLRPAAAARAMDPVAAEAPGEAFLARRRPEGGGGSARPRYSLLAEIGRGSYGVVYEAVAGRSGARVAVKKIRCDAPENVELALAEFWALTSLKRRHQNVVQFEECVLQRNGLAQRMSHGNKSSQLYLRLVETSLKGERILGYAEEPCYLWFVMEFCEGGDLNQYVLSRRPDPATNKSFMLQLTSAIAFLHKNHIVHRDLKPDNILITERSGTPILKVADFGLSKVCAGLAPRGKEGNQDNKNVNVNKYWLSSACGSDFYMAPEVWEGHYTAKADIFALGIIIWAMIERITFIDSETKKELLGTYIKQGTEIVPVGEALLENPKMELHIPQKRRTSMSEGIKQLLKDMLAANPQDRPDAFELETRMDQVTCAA
Sequence of UniProt Q92918 (whole entry, looked up): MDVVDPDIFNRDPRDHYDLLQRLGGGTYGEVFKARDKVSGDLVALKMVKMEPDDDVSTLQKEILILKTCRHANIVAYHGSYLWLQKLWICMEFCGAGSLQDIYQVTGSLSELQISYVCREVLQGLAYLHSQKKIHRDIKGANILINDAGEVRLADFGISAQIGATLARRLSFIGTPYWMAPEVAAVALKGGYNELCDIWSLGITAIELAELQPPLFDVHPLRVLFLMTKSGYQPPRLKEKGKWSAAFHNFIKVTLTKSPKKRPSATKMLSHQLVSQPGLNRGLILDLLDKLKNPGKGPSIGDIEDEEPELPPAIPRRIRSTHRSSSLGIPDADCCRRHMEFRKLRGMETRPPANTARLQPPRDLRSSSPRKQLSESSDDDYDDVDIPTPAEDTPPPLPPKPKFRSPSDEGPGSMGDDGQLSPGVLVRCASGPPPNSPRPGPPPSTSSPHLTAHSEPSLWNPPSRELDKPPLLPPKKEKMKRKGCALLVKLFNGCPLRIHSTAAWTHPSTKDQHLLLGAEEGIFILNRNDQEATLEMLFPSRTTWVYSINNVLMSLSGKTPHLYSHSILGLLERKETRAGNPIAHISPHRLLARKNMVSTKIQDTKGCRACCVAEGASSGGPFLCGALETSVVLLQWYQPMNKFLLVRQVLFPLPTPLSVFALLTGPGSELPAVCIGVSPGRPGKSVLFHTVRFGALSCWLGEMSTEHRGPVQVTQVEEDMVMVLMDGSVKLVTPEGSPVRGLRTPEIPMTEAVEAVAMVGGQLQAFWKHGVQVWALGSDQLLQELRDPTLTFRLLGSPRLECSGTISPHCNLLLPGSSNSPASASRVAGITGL

Study 1
Target: Ephrin type-A receptor 6 (EPHA6, Homo sapiens, UniProt Q9UF33)
Sequence of UniProt Q9UF33 (whole entry, looked up): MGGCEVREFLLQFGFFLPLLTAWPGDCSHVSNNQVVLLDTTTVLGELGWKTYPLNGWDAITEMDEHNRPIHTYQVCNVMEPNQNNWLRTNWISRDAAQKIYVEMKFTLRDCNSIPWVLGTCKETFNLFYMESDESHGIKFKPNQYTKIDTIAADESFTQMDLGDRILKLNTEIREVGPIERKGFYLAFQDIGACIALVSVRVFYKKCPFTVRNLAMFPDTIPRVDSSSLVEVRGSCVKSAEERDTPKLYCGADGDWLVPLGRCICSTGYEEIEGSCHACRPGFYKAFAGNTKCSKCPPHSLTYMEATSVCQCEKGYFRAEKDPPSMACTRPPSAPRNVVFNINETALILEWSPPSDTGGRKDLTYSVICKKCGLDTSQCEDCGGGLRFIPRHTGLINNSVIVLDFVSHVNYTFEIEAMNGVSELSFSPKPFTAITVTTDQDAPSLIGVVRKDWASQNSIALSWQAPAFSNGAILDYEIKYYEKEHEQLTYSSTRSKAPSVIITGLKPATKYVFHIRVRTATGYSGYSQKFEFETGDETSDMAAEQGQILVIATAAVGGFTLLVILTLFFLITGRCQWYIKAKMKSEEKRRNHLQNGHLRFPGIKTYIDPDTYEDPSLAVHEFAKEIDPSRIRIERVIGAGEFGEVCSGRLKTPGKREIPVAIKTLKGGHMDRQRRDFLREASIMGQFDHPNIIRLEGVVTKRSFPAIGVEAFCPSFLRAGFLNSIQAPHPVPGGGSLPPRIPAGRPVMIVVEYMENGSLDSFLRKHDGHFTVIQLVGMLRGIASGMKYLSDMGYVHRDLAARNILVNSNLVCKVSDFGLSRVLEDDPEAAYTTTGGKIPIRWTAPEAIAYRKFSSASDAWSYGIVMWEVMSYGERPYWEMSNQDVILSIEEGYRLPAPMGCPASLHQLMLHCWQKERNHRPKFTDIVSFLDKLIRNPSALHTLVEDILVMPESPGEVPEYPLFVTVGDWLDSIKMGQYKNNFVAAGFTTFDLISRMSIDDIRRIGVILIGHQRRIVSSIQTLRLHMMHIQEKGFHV
Observed: cell-free assay
Tested at: 0.5 µM
Quantity: remaining signal
Cc1ccc(Nc2nccc(N(C)c3ccc4c(C)n(C)nc4c3)n2)cc1S(N)(=O)=O: 80%
COc1cc2c(Nc3ccc(Br)cc3F)ncnc2cc1OCC1CCN(C)CC1: 3.27%
C[C@@H]1CCN(C(=O)CC#N)C[C@@H]1N(C)c1ncnc2[nH]ccc12: 99%

Study 2
Target: Beta-1 adrenergic receptor (ADRB1, Homo sapiens, UniProt P08588)
Sequence of UniProt P08588 (whole entry, looked up): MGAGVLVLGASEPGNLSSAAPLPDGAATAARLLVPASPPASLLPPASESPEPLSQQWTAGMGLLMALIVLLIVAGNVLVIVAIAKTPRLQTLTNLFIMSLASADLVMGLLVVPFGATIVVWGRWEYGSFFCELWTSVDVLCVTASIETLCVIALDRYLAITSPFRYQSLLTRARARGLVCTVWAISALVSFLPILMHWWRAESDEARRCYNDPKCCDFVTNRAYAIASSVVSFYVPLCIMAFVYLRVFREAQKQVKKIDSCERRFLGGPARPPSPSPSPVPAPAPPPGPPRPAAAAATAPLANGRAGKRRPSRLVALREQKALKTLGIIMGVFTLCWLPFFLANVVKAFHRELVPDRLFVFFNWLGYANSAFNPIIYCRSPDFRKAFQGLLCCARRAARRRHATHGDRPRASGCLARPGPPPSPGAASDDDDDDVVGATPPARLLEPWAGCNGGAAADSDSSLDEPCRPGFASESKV
Mode: antagonist
Quantity: IC50
O=[S+]([O-])(N[C@H]1CO[C@H]2[C@@H]1OC[C@@H]2n1nnnc1Oc1cccc(N2CCOCC2)c1)c1cccs1: ≥ 100 µM
COc1ccccc1N1CCN([S+](=O)([O-])c2cc(C)c(C)cc2OC)CC1: ≥ 100 µM
COCc1cc(CC2(NCc3ccc(N(C)C)cc3)COC2)no1: ≥ 100 µM

Study 3
Host: human
Medium: microsomes or S9
Tested at: 2 µM
Time: 0.5 h
Quantity: remaining compound
O=C(NCc1ccccc1)c1ccc(CN(c2ccccc2)S(=O)(=O)c2ccccc2)cc1: 29%
O=C(O)CC1NC(=O)N(c2ccc(Cl)cc2)C1=O (stereo not shown): 81.8%
COc1ccc(Nc2nnc(-c3ccc(C)c(S(=O)(=O)N4CCCCC4)c3)c3ccccc23)cc1C(N)=O: 0.163%
CC(C)n1cc(S(=O)(=O)N2CC(C(=O)O)c3ccccc32)cn1 (stereo not shown): 69.4%

Study 4
Structure (SMILES): C[C@H](NC(=O)c1cnc2n1[C@](C)(Cc1ccc(C#N)cc1)C(=O)N2c1cc(Cl)c(F)c(Cl)c1)C(=O)NC1(c2ccccn2)CC1
Observed: cell-free assay
Method: competition with immobilised ligand
Tested at: 1 µM
Quantity: remaining binding
Mitogen-activated protein kinase 4 (MAPK4, Homo sapiens, UniProt P31152): 100%
Mitogen-activated protein kinase 6 (MAPK6, Homo sapiens, UniProt Q16659): 100%
Ephrin type-B receptor 3 (EPHB3, Homo sapiens, UniProt P54753): 100%
Vascular endothelial growth factor receptor 3 (FLT4, Homo sapiens, UniProt P35916): 100%
Activin receptor type-2B (ACVR2B, Homo sapiens, UniProt Q13705): 100%
Receptor-type tyrosine-protein kinase FLT3 (FLT3, Homo sapiens, UniProt P36888, N841I): 78%
Death-associated protein kinase 1 (DAPK1, Homo sapiens, UniProt P53355): 100%
Mitogen-activated protein kinase kinase kinase kinase 1 (MAP4K1, Homo sapiens, UniProt Q92918): 100%
Serine/threonine-protein kinase Chk1 (CHEK1, Homo sapiens, UniProt O14757): 100%
Cyclin-dependent kinase 9 (CDK9, Homo sapiens, UniProt P50750): 100%
Ankyrin repeat and protein kinase domain-containing protein 1 (ANKK1, Homo sapiens, UniProt Q8NFD2): 100%
Megakaryocyte-associated tyrosine-protein kinase (MATK, Homo sapiens, UniProt P42679): 100%
Ephrin type-A receptor 2 (EPHA2, Homo sapiens, UniProt P29317): 75%
Phosphatidylinositol 4-kinase beta (PI4KB, Homo sapiens, UniProt Q9UBF8): 100%
Phosphatidylinositol 4,5-bisphosphate 3-kinase catalytic subunit beta isoform (PIK3CB, Homo sapiens, UniProt P42338): 99%
Serine/threonine-protein kinase 35 (STK35, Homo sapiens, UniProt Q8TDR2): 100%
cAMP-dependent protein kinase catalytic subunit alpha (PRKACA, Homo sapiens, UniProt P17612): 100%

Study 5
Organism: Sarcocystis neurona
Observed: parasite growth
Tested at: 10 µM
Notes: second screen
Reference: untreated
Quantity: log2 fold change
CC1CCN(CCCC(=O)c2ccc(F)cc2)CC1.Cl: 0.42
Nc1ccc2cn[nH]c2c1: 0.5
CCCN[C@H]1CCc2nc(N)sc2C1.Cl: 0.73
CCCCC(=O)O[C@H]1CC[C@H]2[C@@H]3CCc4cc(O)ccc4[C@H]3CC[C@]12C: 0.53
CCN(CC)CCNC(=O)c1cc(Cl)c(N)cc1OC.Cl: 0.37
C[C@]12CC[C@@H]3c4ccc(O)cc4CC[C@H]3[C@@H]1CC[C@@H]2O: 0.78

Study 6
Cell line: mouse MPNST tumor cells
Method: high-content immunofluorescence imaging
Measured: nuclear SOX9
Tested at: 10 µM
Time: 12 h
Notes: mean of 2 replicates
Reference: DMSO control
Reading: higher = more nuclear SOX9
Quantity: nuclear SOX9 intensity
N#Cc1cc(F)cc(-c2nc(-c3ccc(F)cn3)no2)c1: 105 % of DMSO
COC(=O)c1sccc1S(=O)(=O)Nc1ccc(Nc2ccccc2)cc1OC: 93.1 % of DMSO
c1ccc(C(NCCNC(c2ccccc2)c2ccccc2)c2ccccc2)cc1: 100 % of DMSO
CCOC(=O)c1cc(C#N)c(N2CCC(C(=O)NS(=O)(=O)Cc3ccccc3)CC2)nc1C: 96.3 % of DMSO

Some of these lines once more (study 1):
Cc1ccc(Nc2nccc(N(C)c3ccc4c(C)n(C)nc4c3)n2)cc1S(N)(=O)=O: 80%
COc1cc2c(Nc3ccc(Br)cc3F)ncnc2cc1OCC1CCN(C)CC1: 3.27%
C[C@@H]1CCN(C(=O)CC#N)C[C@@H]1N(C)c1ncnc2[nH]ccc12: 99%
